Results from different studies.
Protocols differ between the studies behind these lines. Values joined by “and” are separate records of one study, mostly repeats; a detail may differ.
Target: Calcium/calmodulin-dependent protein kinase type II subunit alpha (CAMK2A, Homo sapiens, UniProt Q9UQM7)

With `NC(=O)[C@@H](O)C[C@H]1CCc2sc3ncnc(O[C@H]4CC[C@H](N5CCOCC5)CC4)c3c21` the inhibition was 58% (enzyme activity, inhibitor; 10 µM).
With `CNC(=O)C1CCN(c2cc(C)c(F)cc2NC(=O)c2ccc(-c3cc(O)ccc3C)c(C)c2)CC1` the remaining binding was 97% (binding, competition with immobilised ligand; 1 µM).
`CN1CCN(Cc2ccc(-c3ccc(CO[C@H]4CCC[C@@H]4NC(=O)c4cc(-c5cnn(C)c5)cnc4N)cc3)cc2)CC1` gave an inhibition of -1% (enzyme activity, inhibitor; 0.1 µM).
`CN1CC[C@@H](COc2cnc(C#N)cc2-c2ccn3nc(NC(=O)C4CC4)cc3c2)C1` has an inhibition of 7% (enzyme activity, inhibitor; 1 µM).
`O=C(Cc1ccc(OCc2ccccc2)cc1)NC1(C(=O)O)CCN(C(=O)c2ccc(-c3cccc(Cl)c3)cc2)CC1`: “activity vs control” 86% (enzyme activity, inhibitor; 10 µM).
`Nc1ncc(-c2cc(-c3cnn(CC(F)(F)F)c3)ncc2F)nc1C(=O)NC1CNCC(F)C1` (stereo not shown) gave a remaining activity of 97.9% (enzyme activity; 1 µM; reference: DMSO control).
`C=CC(=O)Nc1cccc(-c2cnc3[nH]cc(C(=O)NC(C)(C)C)c3n2)c1` has an inhibition of 0% (kinase activity; 0.1 µM).
With `C=CC(=O)N1CCc2ccc(-n3c(=O)ccc4cnc5ccc(-c6cnn(C)c6)cc5c43)cc21` the remaining binding was 95% (KINOMEscan; 1 µM; reference: DMSO control).
`Cc1cccc(O[C@H]2CCC[C@@H](C(C)CNCc3ccncc3)C2)c1` (relative stereo) has an inhibition of 3% (enzyme activity, inhibitor; 10 µM).
`COCC12C(=O)NC3C4(C(OC)CC1O)C1CC5(O)C(OC)C(O)C(OC(C)=O)(C1C5OC(=O)c1ccccc1)C3(O)C(OC)C24` (stereo not shown) has a remaining activity of 85% and 84% (kinase activity, inhibitor, ProQinase kinase profiling; 25 µM; reference: control).
With `Nc1ncc2c(n1)-c1c([nH]c3ccc(C4=CCOCC4)cc13)CCC2` the remaining binding was 84% (binding, competition with immobilised ligand; 1 µM).
With `COc1cc(Nc2nccc(-c3cnn4nc(OC)ccc34)n2)cc(C(F)(F)F)c1` the remaining binding was 100% (binding, competition with immobilised ligand; 1 µM).
The remaining binding of `Cc1ccc(-c2c(/C=C(\C#N)C(=O)NC(C)C)n(CCCO)c3ncnc(N)c23)cc1` is reported as 87% (cell-free assay, competition with immobilised ligand; 1 µM).

Some of these lines once more:
With `C=CC(=O)N1CCc2ccc(-n3c(=O)ccc4cnc5ccc(-c6cnn(C)c6)cc5c43)cc21` the remaining binding was 95% (KINOMEscan; 1 µM; reference: DMSO control).
